Results gathered from unrelated publications.
Lines come from different studies, so protocols differ.

| Structure (SMILES) | cell line | effect on | method | time | CC50 [µM] |
| --- | --- | --- | --- | --- | --- |
| NC(=O)c1cccc(NC(=O)c2cccnc2N2CCOCC2)c1 | HeLa | cell growth or viability | – | – | > 50 |
| O=C(CC12CC3CC(CC(C3)C1)C2)NCCOCC(=O)NC1CCN(S(=O)(=O)c2cc(C(=O)Nc3cc(F)c(F)c(F)c3)ccc2F)CC1 | HepG2.2.15 | cell growth or viability | CCK-8 | 6 days | 59.3 |
| CC(=O)N(C)CCN1CCN(c2cnc3c(cc(C(=O)NCc4ccc(Cl)cc4)c(=O)n3CC(=O)N3CC(C)(F)C3)n2)C1=O | MRC5 | cell growth or viability | CCK-8 | – | > 40 |
| OC(CNc1cccc(Cl)c1)CN1c2ccccc2Sc2ccccc21 (stereo not shown) | CEM-SS | cell growth or viability | XTT | 6 days | 9 |
| CC1(C)C(NC(=O)C(=NOC2(C(=O)O)CC2)c2csc(N)n2)C(=O)N1OS(=O)(=O)O (stereo not shown) | GES1 | cell growth or viability | – | – | > 100 |
| CCOC(=O)c1cn(CC(c2c[nH]c3cc(Br)ccc23)c2c[nH]c3cc(Br)ccc23)c(C)c1C(=O)OC | HaCaT | cell growth or viability | MTS | 24 h | > 20 |
| O=C(O)c1ccc(Nc2c(-c3ccccc3)nc3cc(-c4ccccc4)ccn23)cc1 | MCF7 | cell growth or viability | – | 72 h | 110 |
| CCCCCCC1CCC/C1=N\NC(N)=S (stereo not shown) | ldlA[mSR-BI] CHO | – | – | 24 h | 2.1 |
| NC(=O)c1ccccc1NC(=O)c1cc(-c2ccccc2)n(-c2ccccc2)n1 | HeLa | cell growth or viability | – | – | > 100 |
| CC1(F)CN(C(=O)Cn2c(=O)c(C(=O)NCc3ccc(Cl)cc3)cc3nc(N4CCN(CCN)C4=O)cnc32)C1 | MRC5 | cell growth or viability | CCK-8 | – | > 40 |
| Nc1ccc(CNC(=O)c2cc(-c3ccccc3)n(-c3ccccc3)n2)cc1 | HeLa | cell growth or viability | – | – | > 50 |
| O=C(Nc1cc(F)c(F)c(F)c1)c1ccc(F)c(S(=O)(=O)N2CCC(O)CC2)c1 | HepG2.2.15 | cell growth or viability | CCK-8 | 6 days | 6.9 |
| O=C(Nc1cccc(CO)c1)c1cc(-c2ccccc2)n(-c2ccccc2)n1 | HeLa | cell growth or viability | – | – | > 50 |
| COCC(=O)N1CCc2cc(-c3csc(NC(=O)c4cc(OC)cc(OC)c4)n3)ccc21 | ldlA[mSR-BI] CHO | – | – | 24 h | > 35 |
| O=C(Nc1ccc(N2CCNCC2)cc1)c1cc(-c2ccccc2)n(-c2ccccc2)n1 | HeLa | cell growth or viability | – | – | 24 |
| CCOC(=O)c1c(C(=O)OC)cn(CC(c2cn(C)c3ccccc23)c2cn(C)c3ccccc23)c1C | HaCaT | cell growth or viability | MTS | 24 h | > 20 |

Repeated from above:
| Structure (SMILES) | cell line | effect on | method | time | CC50 [µM] |
| --- | --- | --- | --- | --- | --- |
| CCOC(=O)c1cn(CC(c2c[nH]c3cc(Br)ccc23)c2c[nH]c3cc(Br)ccc23)c(C)c1C(=O)OC | HaCaT | cell growth or viability | MTS | 24 h | > 20 |
| CCOC(=O)c1c(C(=O)OC)cn(CC(c2cn(C)c3ccccc23)c2cn(C)c3ccccc23)c1C | HaCaT | cell growth or viability | MTS | 24 h | > 20 |
